Published values pooled from the literature.
Numbered parts are unrelated; each lists some results of a single study.

Study 1
Target: Sal-like protein 4, full length isoform B (SALL4, Homo sapiens, UniProt Q9UJQ4-2, residues 1-616)
Technique: universal PBM
Molecule type: double-stranded DNA, one strand shown
Sample: in vitro
Concentration: not given
Notes: 8-mer, flanks averaged, mean of replicates
Direction: higher = stronger binding
Strand | E-score
AACGCCAG | -0.172
AGCGGGGG | -0.229
AATAGTGA | 0.223
CCGCTGTC | -0.277
AGCAGAAC | -0.0508
CCACGCAC | -0.129
ATTCTTTA | 0.236
CCGTGAGA | -0.224
AACGGCCA | 0.0458
ATTGAGAC | 0.0788
ATAGCGGG | -0.00154
CCCAACGC | -0.162
TGGAAACA | -0.00557
AATTCAGA | 0.134
AGAAAGAC | -0.0708
GGTTTTGA | 0.0238
AAGTCCGG | -0.175
ACTGCCCC | -0.157

Study 2
Target: Histone acetyltransferase KAT6A, winged helix 1, GST fusion (KAT6A, Homo sapiens, UniProt Q92794, residues 1-85)
Technique: protein binding microarray
Molecule type: double-stranded DNA, one strand shown
Sample: in vitro
Concentration: not given
Notes: 8-mer, flanks averaged, mean of 2 arrays, mostly near background
Relative to: not given
Direction: higher = stronger binding
Construct (chain): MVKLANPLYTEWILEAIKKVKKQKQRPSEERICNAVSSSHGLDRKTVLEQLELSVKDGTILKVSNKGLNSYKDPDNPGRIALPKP
Strand | E-score
CCCGCAAG | 0.208
AAGTGGCG | 0.027
TAGTACGA | -0.043
ACGTATTA | -0.000175
ACCAGCGC | 0.196
ATAGCGGG | 0.283
GAGGTAGA | -0.116
ATAATCCG | 0.00556
CGGGAGCA | 0.144
CATGTTGA | -0.0324
TGATAAAA | -0.0554
CATCGAGA | -0.118
ACGCTCCC | 0.15
GATACGCA | 0.122
ACTCATAG | -0.128
GTCTTCAC | 0.0521
GCCCAACA | -0.0916
CCGTTGCG | 0.359
ACGCCCCA | -0.105
AGGGAAGA | -0.091
TGGGCCCA | -0.183
CATGCACG | 0.00995
CCACTTTA | -0.209
CCCATTAG | -0.222
ATGAACCG | 0.102

Study 3
Target: RNA binding protein fox-1 homolog 2, RRM domain, GST-SBP tag (RBFOX2, Homo sapiens, UniProt O43251-10, residues 100-194)
Technique: RNA Bind-n-Seq
Molecule type: RNA
Sample: in vitro
Concentration: 365 nM
Notes: natural RNA segment, single round, ends assumed
Relative to: no-protein control
Direction: higher = stronger binding
All sequences stand within: GGGAGUUCUACAGUCCGACGAUC … UGGAAUUCUCGGGUGCCAA
Construct (chain): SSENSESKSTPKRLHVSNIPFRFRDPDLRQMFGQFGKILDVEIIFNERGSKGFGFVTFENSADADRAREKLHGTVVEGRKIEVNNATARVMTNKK
Strand | RBNS enrichment (R)
CAACUAGAUUUUAAGUAGCAUCCAUAGACUUACUCUUUUUGAGCUUGAAGGACUAAAUUAUUAAUUAUUGUUCAGUAAUGAUCACCUAAUUUUUCCCAUAAGAAUUAUAA | 2.07
UUCCCUCGCUAUAUAUCUAUCUUUAUCCAGCCCGAGUAUUUCCAACGUCAUUUUGCAAAUUAGAACAGGACAAAUUUUAUGUUUCCGGGGCACAUAUGUUGUAUUGCAAA | 1.4
CAAAUCUGUGGAUAUUCCAUUUGUAGGACCAAGUCGACAUGCCCAUCCUGACAUUGUAUGCUACGAGAACUCUUCUGAUGAUGGAAUUUCGAUUAAAGUGCACUGAAAGA | 0.77
CUCAGGAAAAGGAAGUCAUUUCGUGUUUGUUUCCCACCAAAGAAGAAUGAAUCCAGGGUUUUUCUACUGUUCGUCUGUCCAGGGGUCCCUGAGAUCUGGGCUCCCUUACA | 0.507
GAAGCUUUCAGUGCUGCUGUUUGGCCCAGCUCAUUACUUUCUCCCUUUCUCUACCACAGCAAACACAUUCUCCACCAUGUCAGUCUAAAGAGUCUAAAGGGGCCGGGAGA | 0.478
UGCUGGGCAUGCUUCGUAGAGGGCCAGGAGCAGCAGGUCAUGUGCACAUGCCGUUGCAGCACAAGCUUAUGCUUCCCGUAGCCGUGGCUUUUCAUUCUGCACAGUCCCAG | 0.563
AGUCUCUCUCGGAGGAAGCUGAGACAACAUACUCUGUCCAUACAUAAGCAGGCAGGGAGGGCCAUGCCACCUACCCUUGGCUAAACAGGGACAGUGAACACAUUUUGGUU | 0.501
GCGGGCAGAGAUGCUUCACACACACUUGCCCUAAGGGGUGGACCCUUCCUGGGAUGUCAGCUCCAGCACUGCCAGCCACCCCCACUGCUCUCUUUGGGACCUGGCCGUGC | 0.33

Study 4
Target: TAR DNA-binding protein 43, full length, His tag (TARDBP, Homo sapiens, UniProt Q13148, residues 1-414)
Technique: RNA Bind-n-Seq
Molecule type: RNA
Sample: in vitro
Concentration: 20 nM
Notes: 6-mer, flanks averaged, single round
Together with: 150 mM KCl
Relative to: input library
Direction: higher = stronger binding
Strand | 6-mer enrichment (R)
CGUUGC | 0.739
GCUCAU | 0.624
CCAGAU | 0.635
CCACUC | 0.589
ACUGAA | 0.673
GCUCUA | 0.612
UGGGUG | 3.85
UAGGUC | 0.705
GCGAAC | 0.928
GAACUG | 0.915
AACAUG | 0.712
UAUUCA | 0.557
GCUGAA | 0.885
GGUUGA | 1.41
CACCCC | 0.673
CAAAGG | 1.1

Study 5
Target: Centromere-binding protein 1, full length, N-terminal tag (CBF1, Saccharomyces cerevisiae, UniProt P17106, residues 1-351)
Chain of UniProt P17106 (whole entry, looked up): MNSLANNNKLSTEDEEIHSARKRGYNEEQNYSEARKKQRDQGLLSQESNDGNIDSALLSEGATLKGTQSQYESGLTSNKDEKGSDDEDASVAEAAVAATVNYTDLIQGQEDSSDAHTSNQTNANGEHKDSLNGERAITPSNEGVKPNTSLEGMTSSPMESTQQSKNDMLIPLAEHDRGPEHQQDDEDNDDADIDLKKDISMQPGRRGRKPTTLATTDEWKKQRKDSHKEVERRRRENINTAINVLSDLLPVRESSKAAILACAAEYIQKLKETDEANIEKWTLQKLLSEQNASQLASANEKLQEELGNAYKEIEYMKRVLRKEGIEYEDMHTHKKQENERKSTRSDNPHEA
Technique: protein-binding microarray
Molecule type: double-stranded DNA, one strand shown
Sample: in vitro
Concentration: 0.8 µM
Notes: whole 60-bp probe, no competitor
Direction: higher = stronger binding
All sequences stand within: … GTCTTGATTCGCTTGACGCTGCTG
Strand | fluorescence intensity [a.u.]
GAAGATGTTTTACCAGGTGAGTCATATAAATATTAG | 574
CTAAAAAAGAAAATACACGTGCTGTTAATATACTTC | 6920
GAATCAAATTGCGGTCACGTATATGCCAACGTTTAG | 1090
CTAAACACTATAAGCGTGATGATAGAATTATTATTC | 593
TGTACGAAGCTATAGCACGTGACTATAGTAGTTAGG | 24800
GAATTGCTAAATGATCACGAAAAATGTTTTTTTTAG | 556
GAAACCTTATCCGCTCACGCGCGTATTACTTCCTAG | 568
GAAATCAGCTTAATTCACGGGATGTTACTTATCTAG | 617
TGTACGAAGCTATGTGAGGTGACTATAGTAGTTAGG | 501
GAAGGAAAGTTTCGACACGTTCATTAGGTTCTATAG | 564
CCTAACTACTATAGTATCATGACATAGCTTCGTACA | 560
CTAGTTCTATGCGAAAACGTGCTAATTTAATATTTC | 1150
GAATCCATTTCAGCTAACGTGATACAACAGGTCTAG | 952
GAAGGGTAAGCACCGCACATGCCAAAGACCCTATAG | 546
TGTACGAAGCTATCGCATGTGATTATAGTAGTTAGG | 1390
TGTACGAAGCTATGACACGTGATTATAGTAGTTAGG | 11900
CTATCTCTTGAATGTTGCGTGTAGCTTGATTAATTC | 532
CTATGTTAGTATCCAAGTGTGACCAACATGTTCTTC | 619

Repeated from above (study 2):
Strand | E-score
AAGTGGCG | 0.027
CCCGCAAG | 0.208
ACGCTCCC | 0.15
TAGTACGA | -0.043
CGGGAGCA | 0.144
ATGAACCG | 0.102
ACGTATTA | -0.000175
AGGGAAGA | -0.091
ACTCATAG | -0.128
